Results gathered from unrelated publications.
Each line is one published result; not all experiments were run side by side.
PFF0160c E182D: Dihydroorotate dehydrogenase (quinone), mitochondrial (PFF0160c, Plasmodium falciparum, UniProt Q08210, E182D)
Sequence of UniProt P42680 (whole entry, looked up): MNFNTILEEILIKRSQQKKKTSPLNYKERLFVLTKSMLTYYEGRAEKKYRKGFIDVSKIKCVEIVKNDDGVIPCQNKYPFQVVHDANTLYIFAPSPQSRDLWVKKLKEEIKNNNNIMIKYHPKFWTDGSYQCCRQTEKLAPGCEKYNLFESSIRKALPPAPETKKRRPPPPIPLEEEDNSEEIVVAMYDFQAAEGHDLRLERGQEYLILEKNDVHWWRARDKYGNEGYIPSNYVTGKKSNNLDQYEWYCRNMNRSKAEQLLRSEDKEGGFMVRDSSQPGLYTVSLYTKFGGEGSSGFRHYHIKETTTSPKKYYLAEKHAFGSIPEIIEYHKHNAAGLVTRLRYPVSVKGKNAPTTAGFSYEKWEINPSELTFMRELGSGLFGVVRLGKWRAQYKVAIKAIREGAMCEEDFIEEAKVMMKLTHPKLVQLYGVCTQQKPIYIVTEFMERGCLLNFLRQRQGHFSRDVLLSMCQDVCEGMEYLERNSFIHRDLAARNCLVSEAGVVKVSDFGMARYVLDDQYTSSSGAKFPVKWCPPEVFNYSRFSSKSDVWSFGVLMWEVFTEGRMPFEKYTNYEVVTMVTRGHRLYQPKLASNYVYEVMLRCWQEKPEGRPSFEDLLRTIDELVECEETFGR
Sequence of UniProt Q00537 (whole entry, looked up): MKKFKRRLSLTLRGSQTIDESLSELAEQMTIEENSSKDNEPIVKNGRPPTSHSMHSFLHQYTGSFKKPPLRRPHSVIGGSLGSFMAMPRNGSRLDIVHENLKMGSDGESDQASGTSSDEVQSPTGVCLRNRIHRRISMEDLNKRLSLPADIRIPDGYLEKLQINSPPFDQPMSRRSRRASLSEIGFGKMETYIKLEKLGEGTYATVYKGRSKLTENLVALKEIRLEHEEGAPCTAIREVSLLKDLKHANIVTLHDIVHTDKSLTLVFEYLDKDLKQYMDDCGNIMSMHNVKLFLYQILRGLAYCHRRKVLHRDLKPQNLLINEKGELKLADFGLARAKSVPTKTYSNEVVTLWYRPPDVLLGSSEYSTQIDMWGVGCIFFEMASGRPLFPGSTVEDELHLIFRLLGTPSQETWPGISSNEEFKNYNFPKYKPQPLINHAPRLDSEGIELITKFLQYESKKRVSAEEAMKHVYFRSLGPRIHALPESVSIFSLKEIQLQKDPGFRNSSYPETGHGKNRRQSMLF
Sequence of UniProt Q9H4B4 (whole entry, looked up): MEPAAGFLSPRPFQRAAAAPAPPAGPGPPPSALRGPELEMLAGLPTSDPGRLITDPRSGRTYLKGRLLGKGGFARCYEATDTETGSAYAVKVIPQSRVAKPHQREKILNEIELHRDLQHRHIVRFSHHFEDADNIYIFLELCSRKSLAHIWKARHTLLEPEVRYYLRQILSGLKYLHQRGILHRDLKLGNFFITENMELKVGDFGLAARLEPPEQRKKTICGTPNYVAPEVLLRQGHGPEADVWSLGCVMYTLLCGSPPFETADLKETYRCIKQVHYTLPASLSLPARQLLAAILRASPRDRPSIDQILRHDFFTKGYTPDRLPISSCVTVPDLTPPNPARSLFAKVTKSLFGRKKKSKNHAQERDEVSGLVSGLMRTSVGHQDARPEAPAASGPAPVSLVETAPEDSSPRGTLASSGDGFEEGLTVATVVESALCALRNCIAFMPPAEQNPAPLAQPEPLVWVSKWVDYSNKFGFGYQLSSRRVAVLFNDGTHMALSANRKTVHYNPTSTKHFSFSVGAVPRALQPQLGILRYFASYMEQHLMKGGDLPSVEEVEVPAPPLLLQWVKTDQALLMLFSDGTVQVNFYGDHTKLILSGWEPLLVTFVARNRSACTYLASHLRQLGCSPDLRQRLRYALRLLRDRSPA
Sequence of UniProt P10721 (whole entry, unmodified, looked up): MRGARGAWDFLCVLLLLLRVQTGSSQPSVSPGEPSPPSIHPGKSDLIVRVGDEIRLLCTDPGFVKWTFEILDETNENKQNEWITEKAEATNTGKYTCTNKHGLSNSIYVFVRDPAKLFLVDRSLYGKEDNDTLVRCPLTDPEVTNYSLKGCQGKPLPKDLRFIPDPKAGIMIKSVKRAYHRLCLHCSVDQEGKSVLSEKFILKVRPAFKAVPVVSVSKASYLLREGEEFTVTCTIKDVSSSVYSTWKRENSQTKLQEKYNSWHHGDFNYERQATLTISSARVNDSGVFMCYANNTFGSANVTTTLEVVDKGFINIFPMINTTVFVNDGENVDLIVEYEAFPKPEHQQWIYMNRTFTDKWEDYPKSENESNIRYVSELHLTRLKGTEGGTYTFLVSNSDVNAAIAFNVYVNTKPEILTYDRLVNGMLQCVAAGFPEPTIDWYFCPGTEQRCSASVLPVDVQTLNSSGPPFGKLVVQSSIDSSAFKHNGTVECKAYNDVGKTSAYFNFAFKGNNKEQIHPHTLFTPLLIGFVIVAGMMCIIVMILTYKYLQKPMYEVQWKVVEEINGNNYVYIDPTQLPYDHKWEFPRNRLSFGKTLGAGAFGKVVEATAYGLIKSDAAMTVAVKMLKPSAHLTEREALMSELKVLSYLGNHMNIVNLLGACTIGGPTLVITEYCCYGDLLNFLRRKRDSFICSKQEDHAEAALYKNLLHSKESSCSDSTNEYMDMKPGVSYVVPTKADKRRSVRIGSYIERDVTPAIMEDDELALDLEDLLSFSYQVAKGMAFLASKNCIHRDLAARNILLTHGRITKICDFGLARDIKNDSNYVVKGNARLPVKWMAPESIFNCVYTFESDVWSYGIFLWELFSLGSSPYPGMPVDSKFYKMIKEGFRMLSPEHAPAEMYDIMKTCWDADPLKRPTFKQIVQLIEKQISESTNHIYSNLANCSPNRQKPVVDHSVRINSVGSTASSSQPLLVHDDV

SMILES	target or system	assay	test system	conditions	endpoint	value
COc1ncccc1-c1cnn2ccc(N3CCN(C(=O)OC(C)C)CC3)nc12	CDK17 (Homo sapiens, UniProt Q00537)	binding, competition with immobilised ligand	–	1 µM	remaining binding	100%
[2H]c1c([2H])c([C@]2([2H])CCCN2C(=O)C(C)(C)Oc2ccc3cn[nH]c3c2)c([2H])c([2H])c1C([2H])([2H])[2H]	PLK3 (Homo sapiens, UniProt Q9H4B4)	binding, competition with immobilised ligand	–	1 µM	remaining binding	89%
[18FH]	–	–	mouse, liver	intravenous, 1 h	tracer uptake	0.17 %ID/g
CC(C)C[C@H](NC(=O)[C@H](Cc1ccccc1)NC(=O)[C@H](Cc1ccccc1)NC(=O)Cc1ccc(-c2ccccc2)cc1)C(=O)N[C@@H](CCCCN)C(=O)N[C@@H](CCCNC(=N)N)C(=O)N[C@H](C(=O)N[C@@H](Cc1c[nH]c2ccccc12)C(=O)N[C@@H](CCCCN)C(=O)N[C@@H](CCCNC(=N)N)C(=O)O)C(C)C	–	metabolic stability, mass spectrometry	human, liver microsomes	45 min	compound remaining	21.8%
Nc1c2c(nc3c1C(c1ccc(Cl)c(Cl)c1)c1ccc(OCC(=O)c4ccc(Cl)cc4)cc1O3)CCCC2 (stereo not drawn)	SH-SY5Y	cell growth or viability, MTT	–	25 µM	viability	59.4%
CC[C@H](C)[C@H](NC(=O)CN)C(=O)NCC(=O)N[C@@H](C)C(=O)N[C@H](C(=O)N[C@@H](CC(C)C)C(=O)N[C@@H](CCCCN)C(=O)N[C@H](C(=O)N[C@@H](CC(C)C)C(=O)N[C@H](C(=O)N[C@H](C(=O)NCC(=O)N[C@@H](CC(C)C)C(=O)N1CCC[C@H]1C(=O)N[C@@H](C)C(=O)N[C@@H](CC(C)C)C(=O)N[C@H](C(=O)N[C@@H](CO)C(=O)N[C@@H](Cc1c[nH]c2ccccc12)C(=O)N[C@H](C(=O)N[C@@H](CCCCN)C(=O)N[C@@H](CCCNC(=N)N)C(=O)N[C@@H](CCCCN)C(=O)N[C@@H](CCCNC(=N)N)C(=O)N[C@@H](CCC(N)=O)C(=O)N[C@@H](CCC(N)=O)C(N)=O)[C@@H](C)CC)[C@@H](C)CC)[C@@H](C)O)[C@@H](C)O)C(C)C)C(C)C	–	chemical stability, HPLC	human, serum	300 µM, 8 h	compound remaining	~52%
O=C(c1ccc(Cl)cc1)N1CCCC(C(=O)N(Cc2nnc(-c3ccccc3Cl)o2)C2CC2)C1 (stereo not drawn)	PFF0160c E182D	enzyme activity, inhibitor, absorbance	–	–	IC50	756 nM
Nc1ncc(-c2nc(N3CCOCC3)nc(N3CCOCC3)n2)c(C(F)F)n1	TEC (Homo sapiens, UniProt P42680)	binding, competition with immobilised ligand	–	10 µM	remaining binding	58%
CC(=O)c1c(Cc2ccccc2Cl)c[nH]c1C	PFF0160c E182D	enzyme activity, inhibitor, absorbance	–	–	IC50	149 nM
COc1ccc(C[C@H](NC(=O)[C@H](C)NC(=O)CN2CCOCC2)C(=O)N[C@@H](Cc2ccccc2)C(=O)C2(C)CO2)cc1 (stereo in doubt)	HEK-293T	cell growth or viability, CCK-8	–	48 h	CC50	> 100000 nM
Nc1c2c(nc3c1C(c1ccc(Cl)c(Cl)c1)c1ccc(OCC(=O)c4ccccc4)cc1O3)CCCC2 (stereo not drawn)	SH-SY5Y	cell growth or viability, MTT	–	0.4 µM	viability	80.7%
COCC1=N[C@@]2(O)[C@H](C(=O)N(C)OC)[C@@H](c3ccccc3)[C@]3(c4ccc(OC)cc4)Oc4cc(OC)cc(OC)c4[C@]23N1	–	metabolic stability	male Sprague-Dawley rat, liver microsomes	1 µM, pH 7.4	microsomal CLint	18.6 µL/min/mg
Nc1c2c(nc3c1C(c1cccc([N+](=O)[O-])c1)c1ccc(OCC(=O)c4ccc(Cl)cc4)cc1O3)CCCC2 (stereo not drawn)	SH-SY5Y	cell growth or viability, MTT	–	6.3 µM	viability	66.5%
CCOC(=O)c1c(NC(=O)CNC(C)C)sc2c1CCCCC2	–	–	male mouse, brain	intraperitoneal, 100 mg/kg, 1 h	concentration	8020 ng/g
Cn1cc2c3c1C(=O)C(N)=CC3=[N+](C)CC2	HeLa	cell growth or viability, MTT	–	72 h	CC50	780 nM
O=C1CC[C@H](N2Cc3c(ccc4c3OCC43CCN(C[C@@H]4CCC5(CCN(c6ccc([C@@H]7c8ccc(O)cc8CC[C@@H]7c7ccccc7)cc6)CC5)OC4)CC3)C2=O)C(=O)N1	–	–	mouse, plasma	intravenous, 1 mg/kg	clearance	18.8 mL/min/kg
Cc1nn(C)cc1-c1nc2c(N3CCN(Cc4ccc(Cl)cc4)CC3)c(Cl)cnc2[nH]1	KIT (Homo sapiens, UniProt P10721, L576P)	binding, competition with immobilised ligand	–	1 µM	remaining binding	19%
C[C@]12CC[C@H]3[C@@H](CC=C4CC(O)CC[C@@]43CO)[C@@H]1CCC2O (stereo partly drawn)	–	–	rat, plasma	intravenous, 1 mg/kg	half-life	7.8 min

Repeated from above:
SMILES	target or system	assay	test system	conditions	endpoint	value
Cn1cc2c3c1C(=O)C(N)=CC3=[N+](C)CC2	HeLa	cell growth or viability, MTT	–	72 h	CC50	780 nM
C[C@]12CC[C@H]3[C@@H](CC=C4CC(O)CC[C@@]43CO)[C@@H]1CCC2O (stereo partly drawn)	–	–	rat, plasma	intravenous, 1 mg/kg	half-life	7.8 min
